Published values pooled from the literature.
Lines come from different studies, so protocols differ. Numbers after ± are the reported error.
Method: steady-state kinetics
B1: DdmC (Stenotrophomonas maltophilia, UniProt Q5S3I3); chain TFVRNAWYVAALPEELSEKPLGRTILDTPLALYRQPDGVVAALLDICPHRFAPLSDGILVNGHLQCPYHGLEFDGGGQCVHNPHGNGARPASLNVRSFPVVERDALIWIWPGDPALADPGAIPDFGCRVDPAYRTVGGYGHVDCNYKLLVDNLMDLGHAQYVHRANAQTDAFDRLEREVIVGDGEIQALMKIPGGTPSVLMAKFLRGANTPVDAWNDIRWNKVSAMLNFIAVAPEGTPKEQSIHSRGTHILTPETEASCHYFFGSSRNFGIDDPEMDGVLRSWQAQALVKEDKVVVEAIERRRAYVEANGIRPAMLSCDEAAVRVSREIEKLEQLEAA
B2: estF (Pseudomonas fluorescens, UniProt P22862); chain STFVAKDGTQIYFKDWGSGKPVLFSHGWLLDADMWEYQMEYLSSRGYRTIAFDRRGFGRSDQPWTGNDYDTFADDIAQLIEHLDLKEVTLVGFSMGGGDVARYIARHGSARVAGLVLLGAVTPLFGQKPDYPQGVPLDVFARFKTELLKDRAQFISDFNAPFYGINKGQVVSQGVQTQTLQIALLASLKATVDCVTAFAETDFRPDMAKIDVPTLVIHGDGDQIVPFETTGKVAAELIKGAELKVYKDAPHGFAVTHAQQLNEDLLAFLKR
B3: Pck1 A467G (Rattus norvegicus, UniProt P07379); chain MPPQLHNGLDFSAKVIQGSLDSLPQEVRKFVEGNAQLCQPEYIHICDGSEEEYGRLLAHMQEEGVIRKLKKYDNCWLALTDPRDVARIESKTVIITQEQRDTVPIPKSGQSQLGRWMSEEDFEKAFNARFPGCMKGRTMYVIPFSMGPLGSPLAKIGIELTDSPYVVASMRIMTRMGTSVLEALGDGEFIKCLHSVGCPLPLKKPLVNNWACNPELTLIAHLPDRREIISFGSGYGGNSLLGKKCFALRIASRLAKEEGWLAEHMLILGITNPEGKKKYLAAAFPSACGKTNLAMMNPTLPGWKVECVGDDIAWMKFDAQGNLRAINPENGFFGVAPGTSVKTNPNAIKTIQKNTIFTNVAETSDGGVYWEGIDEPLAPGVTITSWKNKEWRPQDEEPCAHPNSRFCTPASQCPIIDPAWESPEGVPIEGIIFGGRRPAGVPLVYEALSWQHGVFVGAAMRSEATAGAEHKGKVIMHDPFAMRPFFGYNFGKYLAHWLSMAHRPAAKLPKIFHVNWFRKDKNGKFLWPGFGENSRVLEWMFGRIEGEDSAKLTPIGYVPKEDALNLKGLGDVNVEELFGISKEFWEKEVEEIDKYLEDQVNADLPYEIERELRALKQRISQM
B4: enzyme P89Y (Thermobifida fusca, UniProt Q47RA9); chain MIMIMASKSSPHDLPDVSGLSIAVLGGTGDQGRGLARRFAMAGHEVILGSRSAERAQAVAAELGEGLPVRGMDNAGAAEAGDVVIVAVYWDGHRALLESLKDVLAGKIVVDCVNPLGFDKRGAYALPVEEGSAAEQAAAILPDSRVVAAFHHVSAVLLLDPEVEKVDLDVLVLGDDREATDVVRALAARIPGVRGVYGGRLRNAHQVEAFTANLISINRRYKAHAGIRITDI
B5: protein Y93C (Thermus thermophilus, UniProt Q5SKR5); chain MSAPKPFVIGIAGGTASGKTTLAQALARTLGERVALLPMDHYYKDLGHLPLEERLRVNYDHPDAFDLALYLEHAQALLRGLPVEMPVYDFRACTRSPRRTPVRPAPVVILEGILVLYPKELRDLMDLKVFVDADADERFIRRLKRDVLERGRSLEGVVAQYLEQVKPMHLHFVEPTKRYADVIVPRGGQNPVALEMLAAKALARLARMGAA
B6: UGT88A1 V18R (Arabidopsis thaliana, UniProt Q9LK73); chain MGEEAIVLYPAPPIGHLRSMVELGKTILSKNPSLSIHIILVPPPYQPESTATYISSVSSSFPSITFHHLPAVTPYSSSSTSRHHHESLLLEILCFSNPSVHRTLFSLSRNFNVRAMIIDFFCTAVLDITADFTFPVYFFYTSGAACLAFSFYLPTIDETTPGKNLKDIPTVHIPGVPPMKGSDMPKAVLERDDEVYDVFIMFGKQLSKSSGIIINTFDALENRAIKAITEELCFRNIYPIGPLIVNGRIEDRNDNKAVSCLNWLDSQPEKSVVFLCFGSLGLFSKEQVIEIAVGLEKSGQRFLWVVRNPPELEKTELDLKSLLPEGFLSRTEDKGMVVKSWAPQVPVLNHKAVGGFVTHCGWNSILEAVCAGVPMVAWPLYAEQRFNRVMIVDEIKIAISMNESETGFVSSTEVEKRVQEIIGECPVRERTMAMKNAAELALTETGSSHTALTTLLQSWSPK
B7: ycjQ (Escherichia coli, UniProt P76043); chain MKKLVATAPRVAALVEYEDRAILANEVKIRVRFGAPKHGTEVVDFRAASPFIDEDFNGEWQMFTPRPADAPRGIEFGKFQLGNMVVGDIIECGSDVTDYAVGDSVCGYGPLSETVIINAVNNYKLRKMPQGSSWKNAVCYDPAQFAMSGVRDANVRVGDFVVVVGLGAIGQIAIQLAKRAGASVVIGVDPIAHRCDIARRHGADFCLNPIGTDVGKEIKTLTGKQGADVIIETSGYADALQSALRGLAYGGTISYVAFAKPFAEGFNLGREAHFNNAKIVFSRACSEPNPDYPRWSRKRIEETCWELLMNGYLNCEDLIDPVVTFANSPESYMQYVDQHPEQSIKMGVTF
B8: MsrP (Escherichia coli, UniProt P76342); chain DLLSWFKGNDRPPAPAGKALEFSKPAAWQNNLPLTPADKVSGYNNFYEFGLDKADPAANAGSLKTDPWTLKISGEVAKPLTLDHDDLTRRFPLEERIYRMRCVEAWSMVVPWIGFPLHKLLALAEPTSNAKYVAFETIYAPEQMPGQQDRFIGGGLKYPYVEGLRLDEAMHPLTLMTVGVYGKALPPQNGAPVRLIVPWKYGFKGIKSIVSIKLTRERPPTTWNLAAPDEYGFYANVNPYVDHPRWSQATERFIGSGGILDVQRQPTLLFNGYAAQVASLYRGLDLRENF
B9: ERAP1 K528R (Homo sapiens, UniProt Q9NZ08); chain MVFLPLKWSLATMSFLLSSLLALLTVSTPSWCQSTEASPKRSDGTPFPWNKIRLPEYVIPVHYDLLIHANLTTLTFWGTTKVEITASQPTSTIILHSHHLQISRATLRKGAGERLSEEPLQVLEHPRQEQIALLAPEPLLVGLPYTVVIHYAGNLSETFHGFYKSTYRTKEGELRILASTQFEPTAARMAFPCFDEPAFKASFSIKIRREPRHLAISNMPLVKSVTVAEGLIEDHFDVTVKMSTYLVAFIISDFESVSKITKSGVKVSVYAVPDKINQADYALDAAVTLLEFYEDYFSIPYPLPKQDLAAIPDFQSGAMENWGLTTYRESALLFDAEKSSASSKLGITMTVAHELAHQWFGNLVTMEWWNDLWLNEGFAKFMEFVSVSVTHPELKVGDYFFGKCFDAMEVDALNSSHPVSTPVENPAQIREMFDDVSYDKGACILNMLREYLSADAFKSGIVQYLQKHSYKNTKNEDLWDSMASICPTDGVKGMDGFCSRSQHSSSSSHWHQEGVDVKTMMNTWTLQRGFPLITITVRGRNVHMKQEHYMKGSDGAPDTGYLWHVPLTFITSKSDMVHRFLLKTKTDVLILPEEVEWIKFNVGMNGYYIVHYEDDGWDSLTGLLKGTHTAVSSNDRASLINNAFQLVSIGKLSIEKALDLSLYLKHETEIMPVFQGLNELIPMYKLMEKRDMNEVETQFKAFLIRLLRDLIDKQTWTDEGSVSERMLRSQLLLLACVHNYQPCVQRAEGYFRKWKESNGNLSLPVDVTLAVFAVGAQSTEGWDFLYSKYQFSLSSTEKSQIEFALCRTQNKEKLQWLLDESFKGDKIKTQEFPQILTLIGRNPVGYPLAWQFLRKNWNKLVQKFELGSSSIAHMVMGTTNQFSTRTRLEEVKGFFSSLKENGSQLRCVQQTIETIEENIGWMDKNFDKIRVWLQSEKLEHDPEADATG
UniProt Q6P4A8, sequence (whole entry, looked up): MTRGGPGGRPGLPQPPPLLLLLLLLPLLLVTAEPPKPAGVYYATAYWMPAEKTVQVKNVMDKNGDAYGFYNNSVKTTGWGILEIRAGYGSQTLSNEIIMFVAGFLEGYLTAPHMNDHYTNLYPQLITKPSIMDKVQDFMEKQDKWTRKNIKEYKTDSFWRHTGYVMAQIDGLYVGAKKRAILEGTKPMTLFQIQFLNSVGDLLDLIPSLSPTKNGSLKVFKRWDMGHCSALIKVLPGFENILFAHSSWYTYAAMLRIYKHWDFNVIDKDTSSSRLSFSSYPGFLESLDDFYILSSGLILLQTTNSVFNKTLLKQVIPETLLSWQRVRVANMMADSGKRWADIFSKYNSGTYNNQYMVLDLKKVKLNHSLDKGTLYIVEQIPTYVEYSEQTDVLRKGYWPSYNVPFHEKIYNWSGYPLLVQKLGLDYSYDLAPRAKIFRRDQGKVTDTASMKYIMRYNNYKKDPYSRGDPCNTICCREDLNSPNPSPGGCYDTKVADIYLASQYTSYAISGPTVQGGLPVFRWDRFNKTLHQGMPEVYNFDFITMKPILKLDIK
UniProt P23262, sequence (whole entry, looked up): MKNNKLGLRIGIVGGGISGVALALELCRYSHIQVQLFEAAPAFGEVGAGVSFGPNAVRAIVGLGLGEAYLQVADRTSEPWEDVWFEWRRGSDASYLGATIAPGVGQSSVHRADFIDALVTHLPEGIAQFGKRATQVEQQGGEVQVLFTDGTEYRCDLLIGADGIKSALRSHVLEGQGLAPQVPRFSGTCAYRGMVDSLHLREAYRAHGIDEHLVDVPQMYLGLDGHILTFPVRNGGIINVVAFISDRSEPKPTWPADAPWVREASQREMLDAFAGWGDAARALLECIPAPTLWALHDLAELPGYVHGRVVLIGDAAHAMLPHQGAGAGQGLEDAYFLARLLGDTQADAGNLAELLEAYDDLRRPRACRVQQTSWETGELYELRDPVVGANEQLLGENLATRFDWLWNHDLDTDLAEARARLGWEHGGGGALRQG
UniProt P19337, sequence (whole entry, looked up): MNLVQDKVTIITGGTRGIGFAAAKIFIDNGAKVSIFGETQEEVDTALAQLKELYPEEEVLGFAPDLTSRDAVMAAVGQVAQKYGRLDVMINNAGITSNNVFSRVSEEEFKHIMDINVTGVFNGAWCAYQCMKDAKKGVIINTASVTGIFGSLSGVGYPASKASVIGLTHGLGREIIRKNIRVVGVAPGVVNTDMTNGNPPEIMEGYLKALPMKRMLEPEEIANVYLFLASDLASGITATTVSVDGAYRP

B1 (DdmC) — kcat (COc1c(Cl)ccc(Cl)c1C(=O)O; apparent, together with: NADH 1 mM): 0.0467 ± 0.005 s⁻¹
B2 (estF) — kcat (CCOC(C)=O; pH 6.5, 23 °C, apparent): 12 ± 0.5 s⁻¹
PLBD1 self-cleaved, cathepsin L-processed (Homo sapiens, UniProt Q6P4A8) — kcat (Cc1cc(=O)oc2cc(NC(=O)[C@@H](N)CC(C)C)ccc12; pH 4.5, 37 °C, together with: cathepsin L): 0.74 s⁻¹
enzyme (UniProt A0A7J5BGR1) — kcat (Oc1ccc2c(c1)CCC2; pH 8, 25 °C): 2.3 s⁻¹
B3 (Pck1 A467G) — kcat (Nc1nc2c(ncn2[C@@H]2O[C@H](COP(=O)(O)OP(=O)(O)OP(=O)(O)O)[C@@H](O)[C@H]2O)c(=O)[nH]1; pH 7.5, 25 °C): 14 ± 0.1 s⁻¹
BaiA2 (Clostridium scindens, UniProt P19337) — kcat (C[C@H](CCC(=O)SCCNC(=O)CCNC(=O)[C@H](O)C(C)(C)COP(=O)(O)OP(=O)(O)OC[C@H]1O[C@@H](n2cnc3c(N)ncnc32)[C@H](O)[C@@H]1OP(=O)(O)O)[C@H]1CC[C@H]2[C@@H]3CC[C@@H]4CC(=O)CC[C@]4(C)[C@H]3CC[C@]12C; pH 8.7, 37 °C, together with: NADH): 0.122 s⁻¹
nahG (Pseudomonas putida, UniProt P23262) — kcat (Cc1cc2nc3c(=O)[nH]c(=O)nc-3n(C[C@H](O)[C@H](O)[C@H](O)COP(=O)(O)O)c2cc1C; pH 8.5, 25 °C, no AMP, apparent, cofactor varied, together with: NADH 200 µM, salicylate 150 µM): 8.4 ± 0.5 s⁻¹
B4 (enzyme P89Y) — kcat (NC(=O)c1ccc[n+](CCCO)c1; pH 8, 25 °C): 0.0118 ± 0.0016 s⁻¹
B5 (protein Y93C) — kcat (Nc1ccn([C@@H]2O[C@H](CO)[C@@H](O)[C@H]2O)c(=O)n1; pH 7.2, 25 °C, KCl 100 mM, together with: ATP 100–200 µM): 1.9 ± 0.4 s⁻¹
B6 (UGT88A1 V18R) — kcat (O=c1c(O)c(-c2ccc(O)c(O)c2)oc2cc(O)cc(O)c12; pH 6.8, 37 °C, together with: UDP-glucose): 0.24 s⁻¹
B7 (ycjQ) — kcat (CO[C@H]1O[C@H](CO)[C@H](O)C(=O)[C@H]1O; pH 7, 30 °C, together with: NADH 0.3 mM, MnCl2 0.5 mM): 18.5 ± 1.6 s⁻¹
B8 (MsrP) — kcat (C[S@@+]([O-])CC[C@H](N)C(=O)O; pH 7, 30 °C, together with: benzyl viologen 0.4 mM): 168 ± 15 s⁻¹
B9 (ERAP1 K528R) — kcat (CC(C)C[C@H](N)C(=O)N[C@@H](CO)C(=O)N[C@@H](CCCNC(=N)N)C(=O)N[C@@H](Cc1c[nH]cn1)C(=O)N[C@@H](Cc1c[nH]cn1)C(=O)N[C@@H](C)C(=O)N[C@@H](Cc1ccccc1)C(=O)N[C@@H](CO)C(=O)N[C@@H](Cc1ccccc1)C(=O)N[C@@H](CCCNC(=N)N)C(=O)O; 25 °C): 0.679 ± 0.037 s⁻¹

A few entries again:
BaiA2 (Clostridium scindens, UniProt P19337) — kcat (C[C@H](CCC(=O)SCCNC(=O)CCNC(=O)[C@H](O)C(C)(C)COP(=O)(O)OP(=O)(O)OC[C@H]1O[C@@H](n2cnc3c(N)ncnc32)[C@H](O)[C@@H]1OP(=O)(O)O)[C@H]1CC[C@H]2[C@@H]3CC[C@@H]4CC(=O)CC[C@]4(C)[C@H]3CC[C@]12C; pH 8.7, 37 °C, together with: NADH): 0.122 s⁻¹
B2 (estF) — kcat (CCOC(C)=O; pH 6.5, 23 °C, apparent): 12 ± 0.5 s⁻¹
